Experimental data collected from several papers.
± marks the error that the study gave.
FAAH: Fatty-acid amide hydrolase 1 (FAAH, Homo sapiens, UniProt O00519)
Sequence of UniProt P42338 (whole entry, unmodified, looked up): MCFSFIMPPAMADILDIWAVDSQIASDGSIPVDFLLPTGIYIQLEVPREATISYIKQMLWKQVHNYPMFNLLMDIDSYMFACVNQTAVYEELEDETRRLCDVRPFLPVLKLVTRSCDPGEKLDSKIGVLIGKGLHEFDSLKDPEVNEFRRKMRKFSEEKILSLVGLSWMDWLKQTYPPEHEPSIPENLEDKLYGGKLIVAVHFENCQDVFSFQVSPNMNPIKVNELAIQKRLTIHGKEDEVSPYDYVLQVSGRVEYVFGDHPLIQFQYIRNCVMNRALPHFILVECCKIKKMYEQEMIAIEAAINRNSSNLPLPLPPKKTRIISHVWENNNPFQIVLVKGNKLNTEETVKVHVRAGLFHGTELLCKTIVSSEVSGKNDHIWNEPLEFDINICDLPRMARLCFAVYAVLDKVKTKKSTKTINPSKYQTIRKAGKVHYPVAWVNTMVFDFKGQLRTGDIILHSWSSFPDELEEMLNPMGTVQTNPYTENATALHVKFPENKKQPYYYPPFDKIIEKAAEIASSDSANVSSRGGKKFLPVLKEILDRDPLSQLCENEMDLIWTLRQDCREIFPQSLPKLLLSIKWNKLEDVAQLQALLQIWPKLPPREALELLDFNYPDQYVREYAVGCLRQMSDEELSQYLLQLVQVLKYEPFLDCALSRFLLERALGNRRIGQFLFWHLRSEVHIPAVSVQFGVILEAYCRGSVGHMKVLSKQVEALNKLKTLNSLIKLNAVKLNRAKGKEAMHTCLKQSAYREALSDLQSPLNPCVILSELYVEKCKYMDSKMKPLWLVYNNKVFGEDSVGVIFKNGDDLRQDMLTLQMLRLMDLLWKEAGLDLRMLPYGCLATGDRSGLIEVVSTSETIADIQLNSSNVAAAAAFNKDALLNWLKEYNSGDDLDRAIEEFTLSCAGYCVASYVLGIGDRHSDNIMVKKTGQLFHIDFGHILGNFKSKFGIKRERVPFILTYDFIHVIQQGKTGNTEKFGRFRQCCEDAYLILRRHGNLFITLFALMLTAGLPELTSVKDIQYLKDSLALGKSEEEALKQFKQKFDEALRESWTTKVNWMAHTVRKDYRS
Sequence of UniProt O00519 (whole entry, looked up): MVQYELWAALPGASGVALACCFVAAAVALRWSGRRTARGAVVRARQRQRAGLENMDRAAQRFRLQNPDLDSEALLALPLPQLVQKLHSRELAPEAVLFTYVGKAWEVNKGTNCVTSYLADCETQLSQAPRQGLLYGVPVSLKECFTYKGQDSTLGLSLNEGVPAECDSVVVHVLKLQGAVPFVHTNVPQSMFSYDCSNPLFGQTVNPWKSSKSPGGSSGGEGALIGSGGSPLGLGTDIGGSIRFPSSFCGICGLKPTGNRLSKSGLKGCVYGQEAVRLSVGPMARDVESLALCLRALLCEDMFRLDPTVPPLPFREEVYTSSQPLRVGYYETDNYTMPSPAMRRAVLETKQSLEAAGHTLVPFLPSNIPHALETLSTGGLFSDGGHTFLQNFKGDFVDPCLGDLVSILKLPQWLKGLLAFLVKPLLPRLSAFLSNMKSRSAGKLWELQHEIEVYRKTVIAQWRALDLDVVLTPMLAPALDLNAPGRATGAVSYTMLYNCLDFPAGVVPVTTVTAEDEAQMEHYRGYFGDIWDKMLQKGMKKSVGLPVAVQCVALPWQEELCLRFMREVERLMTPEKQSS
Sequence of UniProt P05177 (whole entry, looked up): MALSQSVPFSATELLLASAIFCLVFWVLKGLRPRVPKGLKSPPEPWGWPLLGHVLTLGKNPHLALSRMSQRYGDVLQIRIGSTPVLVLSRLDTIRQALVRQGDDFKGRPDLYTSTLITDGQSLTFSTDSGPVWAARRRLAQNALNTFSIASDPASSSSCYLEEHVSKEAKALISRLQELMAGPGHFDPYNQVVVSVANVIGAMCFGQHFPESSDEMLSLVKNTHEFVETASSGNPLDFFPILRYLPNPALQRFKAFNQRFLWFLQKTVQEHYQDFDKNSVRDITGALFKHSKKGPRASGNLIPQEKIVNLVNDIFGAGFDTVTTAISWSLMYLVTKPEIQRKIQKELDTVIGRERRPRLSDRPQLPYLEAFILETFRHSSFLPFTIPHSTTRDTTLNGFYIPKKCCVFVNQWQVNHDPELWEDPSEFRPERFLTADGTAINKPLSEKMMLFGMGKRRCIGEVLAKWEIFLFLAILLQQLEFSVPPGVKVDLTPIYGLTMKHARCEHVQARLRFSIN
Sequence of UniProt P09874 (whole entry, looked up): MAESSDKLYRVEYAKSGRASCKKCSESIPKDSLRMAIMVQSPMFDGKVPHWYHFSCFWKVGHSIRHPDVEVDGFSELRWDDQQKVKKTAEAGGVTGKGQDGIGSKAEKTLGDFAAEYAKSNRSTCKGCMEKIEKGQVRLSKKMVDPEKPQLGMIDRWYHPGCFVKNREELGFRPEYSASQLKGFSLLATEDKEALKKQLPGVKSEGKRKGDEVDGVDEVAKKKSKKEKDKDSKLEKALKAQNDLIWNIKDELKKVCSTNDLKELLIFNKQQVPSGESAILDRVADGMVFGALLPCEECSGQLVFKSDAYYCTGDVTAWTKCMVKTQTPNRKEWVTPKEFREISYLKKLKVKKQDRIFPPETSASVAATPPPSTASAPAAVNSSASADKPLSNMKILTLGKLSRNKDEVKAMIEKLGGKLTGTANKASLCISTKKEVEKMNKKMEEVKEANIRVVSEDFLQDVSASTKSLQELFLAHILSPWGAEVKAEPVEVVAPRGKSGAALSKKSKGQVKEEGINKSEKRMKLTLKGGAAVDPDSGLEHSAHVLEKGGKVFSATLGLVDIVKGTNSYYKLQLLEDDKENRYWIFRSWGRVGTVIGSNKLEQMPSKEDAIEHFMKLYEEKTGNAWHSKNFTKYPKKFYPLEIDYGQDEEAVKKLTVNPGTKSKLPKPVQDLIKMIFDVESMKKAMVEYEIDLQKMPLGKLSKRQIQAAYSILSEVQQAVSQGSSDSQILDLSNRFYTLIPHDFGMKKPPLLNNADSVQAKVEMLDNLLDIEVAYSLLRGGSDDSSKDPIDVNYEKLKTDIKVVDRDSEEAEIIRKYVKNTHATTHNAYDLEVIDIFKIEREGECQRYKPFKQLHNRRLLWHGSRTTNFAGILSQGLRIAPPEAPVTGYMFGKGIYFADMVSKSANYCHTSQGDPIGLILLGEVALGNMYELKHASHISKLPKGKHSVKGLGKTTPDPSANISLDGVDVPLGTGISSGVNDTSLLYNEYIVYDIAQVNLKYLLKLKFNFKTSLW
Sequence of UniProt Q8IIJ9 (whole entry, looked up): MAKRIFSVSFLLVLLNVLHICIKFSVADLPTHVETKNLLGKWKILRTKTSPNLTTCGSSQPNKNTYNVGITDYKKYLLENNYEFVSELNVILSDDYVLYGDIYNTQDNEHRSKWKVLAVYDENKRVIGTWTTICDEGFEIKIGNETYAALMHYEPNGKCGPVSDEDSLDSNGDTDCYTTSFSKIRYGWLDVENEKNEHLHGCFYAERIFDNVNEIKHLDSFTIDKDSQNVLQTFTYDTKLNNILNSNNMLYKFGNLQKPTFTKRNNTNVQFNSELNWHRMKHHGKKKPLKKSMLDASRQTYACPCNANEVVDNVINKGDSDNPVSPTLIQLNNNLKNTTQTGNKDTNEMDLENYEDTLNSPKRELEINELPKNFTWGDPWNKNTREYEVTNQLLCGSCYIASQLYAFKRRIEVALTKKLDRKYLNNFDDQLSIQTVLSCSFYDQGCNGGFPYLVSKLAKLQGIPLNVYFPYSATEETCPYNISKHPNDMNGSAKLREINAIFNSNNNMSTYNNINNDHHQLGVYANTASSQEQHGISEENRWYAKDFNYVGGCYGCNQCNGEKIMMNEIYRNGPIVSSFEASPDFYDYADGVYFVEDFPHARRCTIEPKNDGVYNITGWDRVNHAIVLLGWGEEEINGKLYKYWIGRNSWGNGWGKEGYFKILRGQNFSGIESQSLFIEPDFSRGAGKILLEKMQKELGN
Sequence of UniProt P61073 (whole entry, looked up): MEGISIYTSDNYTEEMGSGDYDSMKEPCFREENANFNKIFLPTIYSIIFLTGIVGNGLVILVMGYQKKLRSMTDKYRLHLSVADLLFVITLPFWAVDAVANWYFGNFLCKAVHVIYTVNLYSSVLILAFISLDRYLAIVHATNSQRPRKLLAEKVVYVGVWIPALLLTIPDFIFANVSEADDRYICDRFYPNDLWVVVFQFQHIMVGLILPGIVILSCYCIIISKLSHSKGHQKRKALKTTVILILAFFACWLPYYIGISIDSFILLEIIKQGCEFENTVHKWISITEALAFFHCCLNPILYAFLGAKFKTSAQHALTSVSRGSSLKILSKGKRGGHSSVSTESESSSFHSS
Sequence of UniProt Q16881 (whole entry, looked up): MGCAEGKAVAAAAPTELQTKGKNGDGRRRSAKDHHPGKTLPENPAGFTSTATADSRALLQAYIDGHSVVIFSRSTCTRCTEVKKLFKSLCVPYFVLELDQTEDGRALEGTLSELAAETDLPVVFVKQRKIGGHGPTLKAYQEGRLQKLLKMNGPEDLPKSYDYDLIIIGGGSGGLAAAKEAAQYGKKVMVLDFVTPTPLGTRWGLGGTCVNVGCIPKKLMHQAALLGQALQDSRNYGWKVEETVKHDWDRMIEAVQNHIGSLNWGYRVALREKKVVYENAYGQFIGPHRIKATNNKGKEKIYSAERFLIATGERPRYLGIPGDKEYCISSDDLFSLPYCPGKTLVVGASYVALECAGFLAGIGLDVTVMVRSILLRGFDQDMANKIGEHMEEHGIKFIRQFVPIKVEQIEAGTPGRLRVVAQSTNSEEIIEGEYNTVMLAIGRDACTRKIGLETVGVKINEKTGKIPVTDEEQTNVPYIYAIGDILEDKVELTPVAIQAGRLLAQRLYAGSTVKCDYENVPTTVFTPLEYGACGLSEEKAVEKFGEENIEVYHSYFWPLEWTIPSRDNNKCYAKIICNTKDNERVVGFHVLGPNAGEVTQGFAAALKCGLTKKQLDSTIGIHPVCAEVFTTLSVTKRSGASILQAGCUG

CN1CCC2(CC1)c1ccccc1N(Cc1ccc(C(=O)NO)s1)C2c1cccc(Cl)c1 (stereo not drawn)
IC50 (Histone deacetylase 8 (Schistosoma mansoni, UniProt A5H660); enzyme activity, inhibitor, Fluor-de-Lys; varied substrate concentration, with: Fluor-de-Lys substrate 150 µM): 55 ± 7 nM

O=c1c(O)c(-c2ccc(O)c(O)c2)oc2cc(O)cc(O)c12
IC50 (UGT1A9 (Homo sapiens, UniProt O60656); inhibitor; pooled human liver microsomes; no preincubation, with: propofol): > 250000 nM

COC(=O)c1ccc(-c2ccc3c(c2)[nH]c2ccncc23)cn1
IC50 (MAPT (Homo sapiens, UniProt P10636); ligand displacement, radioligand): > 10000 nM

O=c1cc(N2CCOCC2)oc2c(OCc3ccccc3)cccc12
IC50 (PIK3CB (Homo sapiens, UniProt P42338, E858H); enzyme activity, inhibitor): 130 nM

COc1cccc(Cn2cc(COC(=O)NC3CCCCC3)nn2)c1
IC50 (FAAH; enzyme activity, inhibitor, fluorescence; cell membranes): 158 nM

CCCCCCCCCCCCCCCCCCCCCCO
IC50 (HMGCR (Homo sapiens, UniProt P04035); enzyme activity, inhibitor, absorbance): ~250000 nM

O=c1[nH]c2ccccc2n1C1CCN(CCCC(c2ccc(F)cc2)c2ccc(F)cc2)CC1
IC50 (ABCC1 (Homo sapiens, UniProt P33527); efflux, inhibitor, flow cytometry; SupT1 cells overexpressing ABCC1; with: rhodamine B hexyl ester 500 nM): 2600 ± 2300 nM

CN(CCCNC(=O)c1cccc(Br)c1)C(C)(C)C
IC50 (Lethal(3)malignant brain tumor-like protein 3 (Homo sapiens, UniProt Q96JM7); methyl-lysine reader binding, inhibitor, AlphaScreen): > 500000 nM

CC(C)[C@H](NC(=O)[C@@H]1CCCN1C(=O)[C@H](CCCNC(=N)N)NC(=O)[C@H](CS)NC(=O)[C@H](Cc1c[nH]c2ccccc12)NC(=O)[C@H](CCCNC(=N)N)NC(=O)[C@@H](Cc1ccccc1)NC(=O)[C@H](Cc1c[nH]cn1)NC(=O)[C@H](CCC(=O)O)NC(=O)[C@H](CS)NC(=O)[C@H](CS)NC(=O)[C@H](CCCCN)NC(=O)[C@@H]1CC(=O)N[C@@H](CCCNC(=N)N)C(=O)N[C@@H](C)C(=O)N[C@@H](CC(=O)O)C(=O)N[C@H](Cc2ccc(O)cc2)C(=O)N1)C(N)=O [technetium-99m labelled]
tissue uptake (C57 mice, kidneys; intravenous, 0.037 MBq, 0.5 h): 127 ± 17.3 %ID/g

Cc1ccc2cc(-c3ccccc3)[nH]c2c1
viability (HEK293; cell growth or viability; 50 µM): 84.2%

Cc1ccc(S(=O)(=O)/C=C/C#N)cc1
IC50 (HeLa expressing Luc-ODC; Luc-ODC degradation, inhibitor, cycloheximide chase luciferase): 500 ± 100 nM

O=C(Nc1cc(F)c(F)c(F)c1)c1cc(S(=O)(=O)N2CCOCC2)c(Cl)cc1Cl
IC50 (LPAR4 (Homo sapiens, UniProt Q99677); Ca2+ mobilization, antagonist; CHO; with: LPA at EC50): > 100000 nM

C#Cc1ccc2c(C)c(-c3ccccc3)c(=O)oc2c1
IC50 (Cytochrome P450 1A2 (CYP1A2, Homo sapiens, UniProt P05177); enzyme activity, inhibitor; 6 min, pH 7.6): 5800 nM

NC(=O)c1ccc([N+](=O)[O-])c2c1OCCO2
IC50 (PARP1 (Homo sapiens, UniProt P09874)): > 5000 nM

O=C(NNC(=O)c1ccc(CNS(=O)(=O)c2ccc(F)c(Cl)c2)cc1)c1ccccc1
IC50 (Glutamate NMDA receptor; Grin1/Grin2a (Grin1/Grin2a, Rattus norvegicus, UniProt P35439+Q00959, Q781A); ion current, two-electrode voltage clamp; oocytes): 780 nM

Cc1ccccc1C(C(=O)NC1CCCCC1)N(C(=O)Cn1ccnc1C)c1cccc(F)c1 (stereo not drawn) [fluorine-18 labelled]
IC50 (IDH1 (Homo sapiens, UniProt O75874, R132H); enzyme activity, inhibitor; racemic compound, with: α-ketoglutarate): < 50 nM

CCCN(CCC)c1cc2[nH]c(C3CCCCC3)nc2cc1NC(=O)c1ccccc1
IC50 (Vero; cytotoxicity, Alamar Blue; 3 days, 37 °C): > 100 µg/mL

CN1CCN(c2nc(NCc3ccc(CNCCCNC4CCCCC4)cc3)c3ncn(C)c3n2)CC1
IC50 (CXCR4 (Homo sapiens, UniProt P61073); ligand displacement, radioligand; cell membranes): 59.5 nM

CCCOC(=O)c1ccc(O)cc1
IC50 (FAAH; enzyme activity, inhibitor, fluorimetric; 60 min preincubation, recombinant enzyme, with: OMP substrate 50 µM): 17100 ± 1800 nM

CS(=O)(=O)N1CCN(c2ccc(NC(=O)c3cccc4c(Br)cccc34)cc2)CC1
IC50 (Cyclin-dependent kinase 1, with cyclin A2 (CDK1, Homo sapiens, UniProt P06493); enzyme activity, inhibitor, ADP-Glo; upper-bound estimate, partial inhibition): ~3400 nM

CCC(C)Oc1nc(N)nc(N)c1C#N (stereo not drawn)
IC50 (PIK3CB (Homo sapiens, UniProt P42338); enzyme activity, inhibitor): > 20000 nM

CCCCC(C(=O)COc1c(F)c(F)cc(F)c1F)n1cc(C2(N)CCN(C(N)=O)CC2)nn1 (stereo not drawn)
IC50 (DPAP1 (Plasmodium falciparum, UniProt Q8IIJ9); inhibitor, fluorogenic substrate; Plasmodium falciparum lysate; 30 min): > 20000 nM

Nc1ccc2[nH]c(-c3ccccc3)cc2c1
inhibition (HEK293 NF-κB luciferase reporter; reporter gene, refers to: NF-κB; 50 µM, 6 h, with: TNFα): 78.4 ± 12.1%

N#Cc1ccc(OCC2=C(C(F)F)C(=O)c3ccccc3C2=O)cc1
IC50 (TXNRD1 (Homo sapiens, UniProt Q16881); enzyme activity, inhibitor; pH 7.4, with preincubation): 13 nM

Repeated from above:
O=C(NNC(=O)c1ccc(CNS(=O)(=O)c2ccc(F)c(Cl)c2)cc1)c1ccccc1
IC50 (Glutamate NMDA receptor; Grin1/Grin2a (Grin1/Grin2a, Rattus norvegicus, UniProt P35439+Q00959, Q781A); ion current, two-electrode voltage clamp; oocytes): 780 nM

CN1CCC2(CC1)c1ccccc1N(Cc1ccc(C(=O)NO)s1)C2c1cccc(Cl)c1 (stereo not drawn)
IC50 (Histone deacetylase 8 (Schistosoma mansoni, UniProt A5H660); enzyme activity, inhibitor, Fluor-de-Lys; varied substrate concentration, with: Fluor-de-Lys substrate 150 µM): 55 ± 7 nM

O=C(Nc1cc(F)c(F)c(F)c1)c1cc(S(=O)(=O)N2CCOCC2)c(Cl)cc1Cl
IC50 (LPAR4 (Homo sapiens, UniProt Q99677); Ca2+ mobilization, antagonist; CHO; with: LPA at EC50): > 100000 nM

Nc1ccc2[nH]c(-c3ccccc3)cc2c1
inhibition (HEK293 NF-κB luciferase reporter; reporter gene, refers to: NF-κB; 50 µM, 6 h, with: TNFα): 78.4 ± 12.1%
